{"data": "Results from different studies", "organism": "Escherichia coli", "note": "Lines come from different studies, so protocols differ."}
{"SMILES": "N=C(N)c1ccc(OCc2ccc(COc3ccc(C(=N)N)cc3)cc2)cc1", "system": "BW25113", "setting": "compound alone, with: erythromycin checkerboard", "MIC": "> 200 µg/mL"}
{"SMILES": "CN[C@H](CC(C)C)C(=O)N[C@H]1C(=O)N[C@@H](CC(N)=O)C(=O)N[C@H]2C(=O)N[C@H]3C(=O)N[C@H](C(=O)N[C@H](C(=O)O)c4cc(O)cc(O)c4-c4cc3ccc4O)[C@H](O)c3ccc(c(Cl)c3)Oc3cc2cc(c3O[C@@H]2O[C@H](CO)[C@@H](O)[C@H](O)[C@H]2O[C@H]2C[C@](C)(N)[C@H](O)[C@H](C)O2)Oc2ccc(cc2Cl)[C@H]1O", "system": "DSM 1116", "setting": "iron-depleted medium", "MIC": "> 20 µM"}
{"SMILES": "C[C@H]1COc2c(N3CCN(C)CC3)c(F)cc3c(=O)c(C(=O)O)cn1c23", "assay": "broth microdilution", "setting": "18 h", "MIC": "0.0313 µg/mL"}
{"SMILES": "CC1(C)S[C@@H]2[C@H](NC(=O)[C@H](N)c3ccc(O)cc3)C(=O)N2[C@H]1C(=O)O", "assay": "broth microdilution", "MIC": "32 µg/mL"}
{"SMILES": "C[C@H]1COc2c(N3CCN(C)CC3)c(F)cc3c(=O)c(C(=O)O)cn1c23", "system": "ATCC 25922", "MIC": "0.078 µM"}
{"SMILES": "N=C(N)c1ccc(OCc2cc(COc3ccc(C(=N)N)cc3)cc(-c3ccccc3)c2)cc1", "system": "552100", "setting": "compound alone", "MIC": "200 µg/mL"}
{"SMILES": "CN(C)c1ccc(O)c2c1C[C@H]1C[C@H]3[C@H](N(C)C)C(O)=C(C(N)=O)C(=O)[C@@]3(O)C(O)=C1C2=O", "assay": "broth microdilution", "system": "ATCC 25922", "setting": "ambient air", "MIC": "0.25 µg/mL"}
{"SMILES": "C/C(=N/NC(=O)c1cn(-c2ccccc2)nc1-c1ccc(C)cc1)c1c(O)cc(C)oc1=O", "system": "DH5α", "MIC": "70 µg/mL"}
{"SMILES": "CO[C@H]1/C=C/O[C@@]2(C)Oc3c(C)c(O)c4c(O)c(c(/C=N/N5CCN(C)CC5)c(O)c4c3C2=O)NC(=O)/C(C)=C\\C=C\\[C@H](C)[C@H](O)[C@@H](C)[C@@H](O)[C@@H](C)[C@H](OC(C)=O)[C@@H]1C", "assay": "broth microdilution OD600", "system": "Mueller-Hinton broth", "setting": "24 h, 37 °C, with: 4 µM FeCl3", "MIC": "8 µM"}
{"SMILES": "NCC[C@H](O)C(=O)N[C@@H]1C[C@H](N)[C@@H](O[C@H]2O[C@H](CN)[C@@H](O)[C@H](O)[C@H]2O)[C@H](O)[C@H]1O[C@H]1O[C@H](CO)[C@@H](O)[C@H](N)[C@H]1O", "assay": "broth microdilution", "system": "ATCC 25922", "setting": "ambient air", "MIC": "2 µg/mL"}
{"SMILES": "O=C(Cc1ccccc1)N[C@@H]1C(=O)N2C(C(=O)O)=C(CSc3cccc4cccnc34)CS(=O)(=O)[C@H]12", "system": "25922", "MIC": "128 µg/mL"}
{"SMILES": "Cc1c(CN(C)C(=O)/C=C/c2cnc3c(c2)CC(CCN)C(=O)N3)oc2ccccc12.Cl (stereo not shown)", "assay": "broth microdilution", "system": "AR-0495", "MIC": "2 µg/mL"}
{"SMILES": "CC1(C)SC2C(NC(=O)C(NC(=O)C3=C(O)C(c4ccccc4)NC3=O)c3ccccc3)C(=O)N2C1C(=O)O (stereo not shown)", "assay": "broth microdilution", "system": "BW25113 wild type", "setting": "18 h", "MIC": "25 µg/mL"}
{"SMILES": "N=C(N)c1ccc(OCCS(=O)(=O)CCOc2ccc(C(=N)N)cc2)cc1", "system": "BW25113", "setting": "compound alone, rifampicin checkerboard", "MIC": "> 200 µg/mL"}
{"SMILES": "CC(=O)O[C@H]1C[C@@]2(C)[C@@H](C[C@@H](O)[C@H]3[C@@]4(C)CC[C@@H](O)[C@@H](C)[C@@H]4CC[C@@]32C)/C1=C(\\CCC=C(C)C)C(=O)O", "system": "ATCC 25922", "MIC": "640 µM"}
{"SMILES": "CN(C)[C@@H]1C(O)=C(C(N)=O)C(=O)[C@@]2(O)C(O)=C3C(=O)c4c(O)cccc4[C@@](C)(O)[C@H]3C[C@@H]12", "system": "tetracycline-resistant (pBR322)", "MIC": "900 µM"}
{"SMILES": "O=C1CN(/N=C/c2ccc([N+](=O)[O-])o2)C(=O)N1", "system": "ATCC 25922", "MIC": "80 µM"}
{"SMILES": "Cc1ccc(C(C)C)c(OC2=C(Cl)C(=O)c3ccccc3C2=O)c1", "assay": "broth microdilution", "system": "MTCC 405", "MIC": "10 µg/mL"}
{"SMILES": "CC(C)Oc1c(NC(=O)c2ccc(N3C(=O)C[C@H](NC(=O)c4cc(F)c(/N=N/c5c(F)cccc5F)c(F)c4)C3=O)cc2)ccc(C(=O)N/N=C/c2c(Cl)cncc2Cl)c1O", "system": "BW25113", "setting": "18 h, 37 °C, irradiated at 365 nm, photostationary state", "MIC": "> 6.4 µg/mL"}
{"SMILES": "CC(NCCC(c1ccccc1)c1ccccc1)c1ccccc1 (stereo not shown)", "system": "MC4100 tolC::Tn10", "MIC": "16 µg/mL"}
{"SMILES": "CC(C)(CN)CNCc1nc2ccccc2n1CCOc1ccccc1", "system": "ATCC 25922", "MIC": "64 µg/mL"}
{"SMILES": "Cc1c(CN(C)C(=O)/C=C/c2cnc3c(c2)CC(NC(=O)OC(C)(C)C)C(=O)N3)oc2ccccc12 (stereo not shown)", "assay": "broth microdilution", "system": "AR-0559", "MIC": "> 32 µg/mL"}
{"SMILES": "N=C(N)c1ccc(OCCCCCOc2ccc(C(=N)N)cc2)cc1", "system": "BW25113", "setting": "compound alone, rifampicin checkerboard", "MIC": "200 µg/mL"}
{"SMILES": "CN1CCN(c2ccc(N3C[C@H](CO)OC3=O)cc2F)C=N1", "assay": "broth microdilution", "setting": "compound alone", "MIC": "5 µM"}
{"SMILES": "CN(C)c1cc(NC(=O)CNC(C)(C)C)c(O)c2c1C[C@H]1C[C@H]3[C@H](N(C)C)C(O)=C(C(N)=O)C(=O)[C@@]3(O)C(O)=C1C2=O", "assay": "broth microdilution", "setting": "18 h", "MIC": "0.5 µg/mL"}
{"SMILES": "CN[C@@H]1[C@@H](O[C@H]2O[C@H](CO)[C@@H](N)[C@H](O)[C@H]2O)OC2C[C@@H](N)[C@@H](O[C@H]3[C@H](O)[C@@H](O)[C@H](N)C[C@@H]3N)OC2[C@@H]1O (stereo partly shown)", "assay": "broth microdilution", "system": "ATCC 25922", "setting": "5% CO2", "MIC": "16 µg/mL"}
{"SMILES": "Cn1nnc(-c2ccc(-c3ccc(N4C[C@H](COP(=O)(O)O)OC4=O)cc3F)cn2)n1", "assay": "broth microdilution", "setting": "compound alone", "MIC": "> 80 µM"}
{"SMILES": "CN(C)c1ccc2nc3ccc(=[N+](C)C)cc-3sc2c1", "system": "ATCC 25922", "setting": "18 h, 37 °C, dark", "MIC": "> 128 µM"}
{"SMILES": "CC(=O)NC[C@H]1CN(c2ccc(N3CCN(C(=O)CO)CC3)c(F)c2)C(=O)O1", "assay": "broth microdilution", "setting": "compound alone", "MIC": "5 µM"}
{"SMILES": "CC(C)Oc1c(NC(=O)c2ccc(NC(=O)[C@H](CC(N)=O)NC(=O)c3cc(F)c(/N=N/c4c(F)cccc4F)c(F)c3)cc2)ccc(C(=O)N/N=C/c2ccc(C(=O)O)s2)c1O", "system": "BW25113", "setting": "18 h, 37 °C, irradiated at 365 nm, photostationary state", "MIC": "> 6.4 µg/mL"}
{"SMILES": "CCCN1C[C@H](C)[C@@H](O)[C@](C)(O)[C@@H](CC)OC(=O)[C@H](C)[C@@H](O[C@H]2O[C@@H](C)C[C@@H](N(C)C)[C@@H]2O)[C@H](C)[C@@H](O[C@@H]2C[C@](C)(OC)[C@H](O)[C@@H](C)O2)[C@](C)(O)C[C@H]1C", "system": "ATCC 25922", "MIC": "10 µM"}
{"SMILES": "C[C@@H](O)[C@H]1C(=O)N2C(C(=O)O)=C(S[C@@H]3CN[C@H](C(=O)N(C)C)C3)[C@H](C)[C@H]12", "system": "DH5alpha pET28-lacUV5 control", "setting": "compound alone", "MIC": "< 0.125 µg/mL"}
{"SMILES": "Cc1c(CN(C)C(=O)/C=C/c2cnc3c(c2)CCC(=O)N3)oc2ccccc12", "assay": "broth microdilution", "system": "AR-0137", "MIC": "> 32 µg/mL"}
{"SMILES": "CC[C@H](C)[C@H](NC(=O)[C@H](CCCCN)NC(=O)[C@H](CCC(=O)O)NC(=O)CNC(=O)CNC(=O)[C@H](CCCCN)NC(=O)[C@H](CCCNC(=N)N)NC(=O)[C@H](CC(C)C)NC(=O)[C@H](CC(C)C)NC(=O)CN)C(=O)NCC(=O)N[C@@H](CCC(=O)O)C(=O)N[C@@H](CCCCN)C(=O)N[C@@H](CC(C)C)C(=O)N[C@@H](CCCCN)C(=O)N[C@@H](CCCCN)C(=O)N[C@H](C(=O)NCC(=O)N[C@@H](CCC(N)=O)C(=O)N[C@@H](CCCCN)C(=O)N[C@H](C(=O)N[C@@H](CCCCN)C(=O)N[C@@H](CC(N)=O)C(=O)N[C@@H](Cc1ccccc1)C(=O)N[C@@H](Cc1ccccc1)C(=O)N[C@@H](CCC(N)=O)C(=O)N[C@@H](CCCCN)C(=O)N[C@@H](CC(C)C)C(=O)N[C@H](C(=O)N1CCC[C@H]1C(=O)N[C@@H](CCC(N)=O)C(=O)N1CCC[C@H]1C(=O)N[C@@H](CCC(=O)O)C(=O)N[C@@H](CCC(N)=O)C(=O)O)C(C)C)[C@@H](C)CC)[C@@H](C)CC", "assay": "broth microdilution", "system": "ATCC 25922", "setting": "16 h, 37 °C, cation-adjusted Mueller-Hinton broth", "MIC": "128 µg/mL"}
{"note": "Excerpt of the above:"}
{"SMILES": "CC1(C)SC2C(NC(=O)C(NC(=O)C3=C(O)C(c4ccccc4)NC3=O)c3ccccc3)C(=O)N2C1C(=O)O (stereo not shown)", "assay": "broth microdilution", "system": "BW25113 wild type", "setting": "18 h", "MIC": "25 µg/mL"}
{"SMILES": "CN[C@@H]1[C@@H](O[C@H]2O[C@H](CO)[C@@H](N)[C@H](O)[C@H]2O)OC2C[C@@H](N)[C@@H](O[C@H]3[C@H](O)[C@@H](O)[C@H](N)C[C@@H]3N)OC2[C@@H]1O (stereo partly shown)", "assay": "broth microdilution", "system": "ATCC 25922", "setting": "5% CO2", "MIC": "16 µg/mL"}
{"SMILES": "C[C@@H](O)[C@H]1C(=O)N2C(C(=O)O)=C(S[C@@H]3CN[C@H](C(=O)N(C)C)C3)[C@H](C)[C@H]12", "system": "DH5alpha pET28-lacUV5 control", "setting": "compound alone", "MIC": "< 0.125 µg/mL"}
